Measured values gathered from unrelated publications.
Each numbered part is a random draw from the data of one study; scales do not carry over between parts. Substitutions count along the parent as printed.

Study 1 — target: CREBL2, bZIP domain (human); method: DHFR protein complementation; sample: yeast; baseline: wild-type JUN-FOS pair; direction: higher = stronger binding
Notes: single substitutions, most at no-binding floor
Starting sequence: JUN, bZIP domain (human); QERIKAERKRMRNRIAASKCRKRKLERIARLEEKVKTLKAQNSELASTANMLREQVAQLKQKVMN; partner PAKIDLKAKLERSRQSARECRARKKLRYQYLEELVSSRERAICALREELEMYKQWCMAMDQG
| Change | binding fitness |
| --- | --- |
| R30H | -1.55 natural log |
| L45T | -1.52 natural log |
| A29P | -1.52 natural log |
| N42Q | -1.46 natural log |

Study 2 — method: protein-binding microarray; form: double-stranded DNA, one strand shown; sample: in vitro; concentration: 2200 nM top; notes: 60-bp whole probe; together with: salmon DNA 0.4 mg/ml; baseline: random background probes; direction: higher = stronger binding; shared flanks, not repeated: GCCTAGCAC … GTCTTGATTCGCTTGACGCTGCTG
Target: Interferon regulatory factor 7, full length, phosphomimetic (IRF7, Homo sapiens, UniProt Q92985, residues 1-503, S471D/S472D/S475D/S476D/S477D/S483D/S484D/S487D)
Target sequence (chain): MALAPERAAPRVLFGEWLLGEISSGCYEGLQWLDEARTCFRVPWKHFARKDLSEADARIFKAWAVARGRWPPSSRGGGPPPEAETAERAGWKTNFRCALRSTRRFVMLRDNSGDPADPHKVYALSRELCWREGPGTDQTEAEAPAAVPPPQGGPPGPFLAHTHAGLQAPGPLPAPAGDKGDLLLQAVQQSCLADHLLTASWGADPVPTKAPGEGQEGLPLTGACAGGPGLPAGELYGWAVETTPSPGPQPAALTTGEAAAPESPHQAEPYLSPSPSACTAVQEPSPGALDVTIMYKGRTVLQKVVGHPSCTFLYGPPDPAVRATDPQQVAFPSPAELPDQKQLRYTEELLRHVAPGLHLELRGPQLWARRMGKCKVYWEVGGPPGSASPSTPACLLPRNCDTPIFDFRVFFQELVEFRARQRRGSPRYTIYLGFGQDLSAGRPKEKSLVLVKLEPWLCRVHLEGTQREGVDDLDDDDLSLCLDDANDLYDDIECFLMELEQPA
| Sequence | fitted relative affinity [z-score] |
| --- | --- |
| TTCGGACTGGGACTGGGTTAGTGCTAG | -0.655 |
| TTAGCTCTCAGTATCGATTAGTGCTAG | 0.481 |
| TTAGGACTGCTTATGCTTTAGTGCTAG | 0.0384 |
| TCAAACATCCCAATGGCACTGTGCTAG | 0.299 |
| TATGTTCACTATTTAAGACCGTGCTAG | 0.901 |
| CCAACTCTGTTTTCGCTTTCTGTGCTA | 8.7 |

Study 3 — method: protein binding microarray; form: double-stranded DNA, one strand shown; sample: in vitro; concentration: not given; baseline: not given; direction: higher = stronger binding
Target: Histone acetyltransferase KAT6A, both winged helices, GST fusion (KAT6A, Homo sapiens, UniProt Q92794, residues 1-181)
Notes: 8-mer, flanks averaged, mean of 2 arrays, mostly near background
Residues (chain): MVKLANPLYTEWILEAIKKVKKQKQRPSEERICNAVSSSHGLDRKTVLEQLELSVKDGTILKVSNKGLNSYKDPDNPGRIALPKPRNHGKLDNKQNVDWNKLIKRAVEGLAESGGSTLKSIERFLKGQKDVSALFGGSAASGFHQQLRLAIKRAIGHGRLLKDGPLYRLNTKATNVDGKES
| Sequence | E-score |
| --- | --- |
| CCAGTAAG | -0.118 |
| CTGGATTC | -0.0777 |
| ATGGCCAA | -0.165 |
| ATGTTGCG | 0.127 |
| ATCGCGGC | 0.332 |

Other studies, line by line
| Molecule | target | assay | system | setting | scale | quantity | value |
| --- | --- | --- | --- | --- | --- | --- | --- |
| PhoQ, residues 284 288 289 292 302 303 NLMGRA | PhoP, residues 12 14 15 18 19 NIMAP (Escherichia coli, UniProt P23836) | Sort-seq, refers to: YFP reporter | E. coli | PhoQ-PhoP variant library, together with: 10 µM Mg2+ | baseline: high Mg2+ state, higher = stronger signaling | fold induction | 0.964 |
